# Results gathered from unrelated publications.
# Every numbered part comes from another study and shows a few of its results, in no order. Changes are numbered by the printed parent chain.

# Sample 1
# Target: Centromere-binding protein 1, full length, His-tagged (CBF1, Saccharomyces cerevisiae, UniProt P17106, residues 1-351)
# Chain of UniProt P17106 (whole entry, looked up): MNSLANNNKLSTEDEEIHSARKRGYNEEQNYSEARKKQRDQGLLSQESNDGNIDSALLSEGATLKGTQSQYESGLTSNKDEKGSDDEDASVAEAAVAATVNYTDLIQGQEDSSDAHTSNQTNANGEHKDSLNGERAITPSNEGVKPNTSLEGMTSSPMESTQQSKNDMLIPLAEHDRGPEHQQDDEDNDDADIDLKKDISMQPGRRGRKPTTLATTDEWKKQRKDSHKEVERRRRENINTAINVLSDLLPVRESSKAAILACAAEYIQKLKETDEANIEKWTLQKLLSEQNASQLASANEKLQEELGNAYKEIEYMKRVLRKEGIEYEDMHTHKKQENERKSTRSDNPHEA
# Technique: competition protein-binding microarray
# Molecule type: double-stranded DNA, one strand shown
# Matrix: in vitro
# Concentration: 2 µM
# Notes: whole 60-bp probe, lowest competitor level
# Added: Pho4 competitor, 0.05 µM
# Direction: higher = stronger binding
# Constant ends, left off below: … GTCTTGATTCGCTTGACGCTGCTG
Oligonucleotide,fluorescence intensity [a.u.]
TGCTTACTTGATTGTCATGTGCCTTCGTAGGCAAAG,438
AAAGCGGTAATTTGTCACGCTACTTCACATATCTAT,280
CACCCGGAGTACCAAAACGTGACAAAGCAGTTTCCT,505
CATACCCAACCTTGCCGGGTGGGTGAAGATATTTGT,55.9
CTAACGAAGGTTTGTCAAGTGGGTGACAAGCCAAGT,70.5
CAGCGGCTTTCTTTTCACGGGCTTCTCTTTCAGCTT,86.9
AGACCCTTGTCGCGTCAGGTGATTGTTGTGGTACTT,899
GTATCCATATCTTTTTGAGAGCATTGAAAGTATACG,80.9
CGGGGTTAAGTTTTTCACGTGACCTGCTTGCAGCAG,10000
GCAAAACGCCCCGCCCACGTGGAGTTGACAGTTAAG,427
TTTTCAAGGTCTAGAAGCGTGCCGATATCATTCTGA,76.2
CGGGGTTAAGTTTTTCACGTGACTTGCTTGCAGCAG,7030
ACCTGAAATCCTTTTACAAACCATATTTAGATGTGC,91.2
TTGTTCGAAAAAAATAGCGTGCTTTTTGGCCAGAAA,86.4
CTAACGAAGGTTTTTCACGTGGAATACAAGCCAAGT,639
AAATTACTAAGTTGAATAGTGGGTGACGCCGTATGA,78.8
TGATGAGGACACCAACACGTGCAAACATGGTAGTGC,1340

# Sample 2
# Target: CCNE1, cyclin fold, Cln2 fusion (human)
# Technique: yeast growth competition, sequencing
# Matrix: yeast
# Notes: strong parent motif
# Reference: not given
# Direction: higher = stronger binding
# Parent: RBL1 docking peptide (human); GSAKRRLFGEDPP
Change,normalised enrichment score
GSAKRRLHGEDPP [F8H],-0.0731
GSAKRRIFGEDPP [L7I],2.68
GVAKRRLFGEDPP [S2V],4.35
GSAKMRLFGEDPP [R5M],0.464
GSAKRRLFGEDPS [P13S],5.56
GSAKRRLFGQDPP [E10Q],3.72
GSAKRRLEGEDPP [F8E],-0.519
GFAKRRLFGEDPP [S2F],4.76
GSAKRTLFGEDPP [R6T],2.07
GSAKRRLFGEDPN [P13N],6.15
GNAKRRLFGEDPP [S2N],6.36
GSAKRGLFGEDPP [R6G],-0.133
GSAKRRLFGEDQP [P12Q],6.15
GSAKRRLFGEDCP [P12C],6.16
GSAKRFLFGEDPP [R6F],2.81
GSAKRRLSGEDPP [F8S],0.0382
GSAKARLFGEDPP [R5A],0.379
GSDKRRLFGEDPP [A3D],0.435
GSAKRWLFGEDPP [R6W],2.26
GSAKRRLFGERPP [D11R],3.74
GSAKRRLIGEDPP [F8I],0.636

# Sample 3
# Target: Fragile X messenger ribonucleoprotein 1, C-terminal low-complexity region (Fmr1, Mus musculus, UniProt P35922)
# Technique: RNA Bind-n-Seq
# Molecule type: RNA
# Matrix: in vitro
# Concentration: 200 nM
# Notes: whole 134-nt RNA, ends assumed
# Added: 150 mM LiCl
# Reference: input library
# Direction: higher = stronger binding
# Each molecule: 7-deaza-guanosine replaces G
# Constant ends, left off below: GGGAGUUCUACAGUCCGACGAUC … UGGAAUUCUCGGGUGUCAAGG
Oligonucleotide,log2 enrichment
UCCUGUGCUACACAUCGUAUGUACCGAAUCGGGGAAAAAAAGGGGAGGGGAAAAAGGGGAAAGUAUUAUGUUACGCCGUUCGGAUCUGCA,-0.661
UGUGGACGACAAUGAGGAGACCAUCAAAAAGCGGCUGGAGACCUAUUACAAGGCCACAGAACCUGUCAUCGCCUUCUAUGAGAAACGUGG,-0.44
ACCAUGCAGGUGGGCAUCUUUGGGAAGGGGGGCAAGGGGGGGAUAGGGAGGGGGGUAACACUUUGGGAACAGGUGGUCCCAGGUCGUUUC,1.09
UGGCCCGGGUGGCAUGCGGGGAGGAAGAGGUGGCCUCAUGGAUCGUGGUGGUCCCGGUGGAAUGUUCAGAGGUGGCCGUGGUGGAGACAG,-0.6
CCUGUGCUACACAUCGUAUGUACCGAAUCAAAUUUUUUUAAACCCCCCCAAACCCCCAAAAAAGUAUUAUGUUACGCCGUUCGGAUCUGC,1.64
AAGUCCUGUGCUACACAUCGUAUGUACCGAAUCGGGGAAAAGGAAAAGGAAAAGGGAAAGUAUUAUGUUACGCCGUUCGGAUCUGCACUU,-0.748
CACAGACAACACGCACCCACACAGACACAGAGGGUAGGGGUUGGGAUGGGGACAGGGUGCACAGCAGGGCGGGGUAGGACCCCAGCCCCU,-0.548
AGUCCUGUGCUACACAUCGUAUGUACCGAAUCGGAAAAAAGGAAAAAAGGAAAAAAGGAAAGUAUUAUGUUACGCCGUUCGGAUCUGCAC,-1.66
CUCAAGUCCUGUGCUACACAUCGUAUGUACCGAAUCGGGGCCGGGCCGGGCCGGAAAGUAUUAUGUUACGCCGUUCGGAUCUGCACUUCC,1.03
UAACUUUAGAGGAGGAUCUGAUGGAUAUGGCAGUGGACGUGGAUUUGGGGAUGGCUAUAAUGGGUAUGGAGGAGGACCUGGAGGUUGCAA,0.381
CAAACUUAAAGUCUCCCUUGCUCGGAAGAAGCCUCCAAUGAACAGUAUGCGGGGUGGUCUGCCACCCCGUGAGGGCAGAGGCAUGCCACC,1.83

# Sample 4
# Target: Interferon regulatory factor 7, full length, phosphomimetic (IRF7, Homo sapiens, UniProt Q92985, residues 1-503, S471D/S472D/S475D/S476D/S477D/S483D/S484D/S487D)
# Technique: protein-binding microarray
# Molecule type: double-stranded DNA, one strand shown
# Matrix: in vitro
# Concentration: 2200 nM top
# Notes: 60-bp whole probe
# Added: salmon DNA 0.4 mg/ml
# Reference: random background probes
# Direction: higher = stronger binding
# Constant ends, left off below: GCCTAGCAC … GTCTTGATTCGCTTGACGCTGCTG
# Target sequence (chain): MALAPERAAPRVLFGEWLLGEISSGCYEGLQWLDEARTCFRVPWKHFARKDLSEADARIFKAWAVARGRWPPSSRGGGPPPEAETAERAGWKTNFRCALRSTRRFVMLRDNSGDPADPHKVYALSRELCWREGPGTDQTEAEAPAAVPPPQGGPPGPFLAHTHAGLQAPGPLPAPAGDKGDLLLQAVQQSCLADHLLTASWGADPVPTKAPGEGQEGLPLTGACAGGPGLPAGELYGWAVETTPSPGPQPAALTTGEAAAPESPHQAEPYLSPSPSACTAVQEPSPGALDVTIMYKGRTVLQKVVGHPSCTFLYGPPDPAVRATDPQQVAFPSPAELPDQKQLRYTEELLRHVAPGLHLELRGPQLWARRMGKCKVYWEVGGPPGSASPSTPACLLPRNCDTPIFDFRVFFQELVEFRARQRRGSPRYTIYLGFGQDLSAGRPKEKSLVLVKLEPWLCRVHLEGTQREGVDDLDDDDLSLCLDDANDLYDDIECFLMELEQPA
Oligonucleotide,fitted relative affinity [z-score]
GACGAACTGGGGTATCAAGACGTGCTA,-0.166
TGAGATTTCAGTTCCGATTAGTGCTAG,1.77
TCAATTTTCATTTTCCAACTGTGCTAG,6.02
TTAGGTATCTTTCTCCTTTAGTGCTAG,1.11
GACGGTATCGGGTTTCGTGACGTGCTA,1.01
GACGGACTGCAACTGCTGACGTGCTAG,-0.335
GACGCTTTCGGGTTTCGAGACGTGCTA,10.4
TTTGATTTCGGGACTGGATTAGTGCTA,1.75
GACGGACTGGGTTCCGGGACGTGCTAG,-0.821
TCAATTGTGGCTTTTTAACTGTGCTAG,0.335
GACGATATCAGTTTCGGGACGTGCTAG,4.28
TTTTTTTTTTACTTCGGGTGGTGCTAG,1.99
TTAGGACTGCTTATCCTATAGTGCTAG,0.282
TTAGGTGTCGGGTATCGGTTAGTGCTA,0.323
AATCATTCACCTGTCGTTGAGTGCTAG,1.06
TTAGGTTTCGGGTTTCGGTGAGTGCTA,9.31
TCAAATTTTTTTTCTAAACTGTGCTAG,-0.0269
CCAGACTTGATTTTGGTCTTGTGCTAG,0.916
GTGTTTGTCCCTATTTAAGAGTGCTAG,2.39
TGGGTCTTGGTTCTCAGCTTGTGCTAG,0.272
GACGTACTGGGTCTCGGGACGTGCTAG,-0.254
AGGAAGACATCAAAGAGAGCGTGCTAG,-1.06
CTAATTTTGAGACTCATGGGGTGCTAG,-0.169
ACTCGTTTACATTTTCCAAAGTGCTAG,3.05
TCAATTTTTTTTATCAAACTGTGCTAG,0.138

# Other studies, line by line
Substance,target,assay,system,setting,how to read,quantity,result
"PhoQ, residues 284 288 289 292 302 303 TLASMF","PhoP, residues 12 14 15 18 19 HLGGL (Escherichia coli, UniProt P23836)","Sort-seq, refers to: YFP reporter",E. coli,"PhoQ-PhoP variant library, added: 10 µM Mg2+","reference: high Mg2+ state, higher = stronger signaling",fold induction,14.1

# A few entries again (sample 4):
Oligonucleotide,fitted relative affinity [z-score]
AATCATTCACCTGTCGTTGAGTGCTAG,1.06
TTAGGTTTCGGGTTTCGGTGAGTGCTA,9.31
TCAAATTTTTTTTCTAAACTGTGCTAG,-0.0269
CCAGACTTGATTTTGGTCTTGTGCTAG,0.916
GTGTTTGTCCCTATTTAAGAGTGCTAG,2.39
